Measured values pooled from the literature.
Protocols differ between the studies behind these lines. Several values in a cell are separate wells, animals, samples, runs or records.
Target: Activin receptor type-1B (ACVR1B, Homo sapiens, UniProt P36896)

SMILES = Nc1ncc2c(n1)-c1c([nH]c3ccc(C4=CCOCC4)cc13)CCC2; assay = binding, competition with immobilised ligand; conditions = 1 µM; measurement = remaining binding; result = 89%
SMILES = COc1ccc(NC(=O)Nc2ccc3c(c2)C(=O)N(C(C)CO)CC(C)C(CN(C)Cc2ccc4c(c2)OCO4)O3)cc1 (stereo not shown); assay = binding, competition with immobilised ligand; conditions = 10 µM; measurement = remaining binding; result = 84%
SMILES = NC(=O)C[C@H]1CCc2sc3ncnc(O[C@H]4CC[C@H](N5CCOCC5)CC4)c3c21; assay = enzyme activity, inhibitor; conditions = 10 µM; measurement = inhibition; result = -2%
SMILES = CN1CCN(Cc2ccc(-c3ccc(CO[C@H]4CCC[C@@H]4NC(=O)c4cc(-c5cnn(C)c5)cnc4N)cc3)cc2)CC1; assay = enzyme activity, inhibitor; conditions = 0.1 µM; measurement = inhibition; result = 13%
SMILES = C=CC(=O)N1CCc2ccc(-n3c(=O)ccc4cnc5ccc(-c6cnn(C)c6)cc5c43)cc21; assay = KINOMEscan; conditions = 1 µM; scale = relative to: DMSO control; measurement = remaining binding; result = 98%
SMILES = C=CC(=O)N1Cc2nc(-c3cc(-c4cc(Cl)cnc4Cl)c(F)cc3F)n(-c3ccncn3)c2C1; assay = cell-free assay; conditions = 1 µM; measurement = inhibition; result = -3.1%
SMILES = CC(C)=CC1OC(C)(C)C2C=C3C(=O)C(Cl)=CC(O)C3C3C(O)C4OC4C(=O)C132 (stereo not shown); assay = cell-free assay, competition with immobilised ligand; conditions = 10 µM; measurement = remaining binding; result = 95%
SMILES = O=C=[N][Ru-4]123([n]4c5ccc(O)cc5c5c6c(c7cc(F)c[n+]1c7c54)C(=O)NC6=O)[S+]1CC[S+]2CC[S+]3CC1 (stereo not shown); assay = enzyme activity; conditions = 100 nM, human enzyme, added: 10 µM ATP; scale = relative to: untreated; measurement = remaining activity; result = 123%
SMILES = CNC(=O)C[C@H](Cc1ccc(C#N)cc1)NC(=O)c1cc(-c2ccc(CN[C@H](C)c3ccc(C)cc3)o2)ccc1Cl; assay = enzyme activity, inhibitor; conditions = 1 µM; measurement = activity vs control; result = 92%
SMILES = CNS(=O)(=O)Nc1nccc(Cc2c(C)c3ccc(Oc4ncccc4F)cc3oc2=O)c1F; assay = cell-free assay, competition with immobilised ligand; conditions = 10 µM; measurement = remaining binding; result = 85%
SMILES = COc1c(OCCCN2CCOCC2)ccc2c1N=C(NC(=O)c1cnc(N)nc1)N1CCN=C21; assay = kinase activity, inhibitor; conditions = 1 µM; scale = relative to: untreated control; measurement = remaining activity; result = 116%
SMILES = C=C1CCCCCCCCCC(CO)C1=O (stereo not shown); assay = cell-free assay, competition with immobilised ligand; conditions = 10 µM; measurement = remaining binding; result = 96%
SMILES = C=CC(=O)N1CCCC(n2c(=O)c3ncccc3n(Cc3ccc(Oc4ccccc4)cc3)c2=O)C1 (stereo not shown); assay = cell-free assay, competition with immobilised ligand; conditions = 1 µM; measurement = remaining binding; result = 72%
SMILES = N[C@H]1CC[C@H](Nc2nccc(-c3cccnc3Oc3ccc(NC(=O)NC4CC4)c4ccccc34)n2)CC1; assay = kinobead competition pulldown; test system = HEK293/HCT116 lysate mixture; conditions = 10 µM, 1 h, 4 °C; scale = lower = stronger competition; measurement = log2 LFQ intensity; result = 23.6 and 23.4 and 23.5
SMILES = COc1cc(Nc2nc(C)cc(-c3cnn4nc(OC)ccc34)n2)cc(C(F)(F)F)c1; assay = inhibitor; conditions = 1 µM; scale = relative to: control; measurement = remaining activity; result = 100%
SMILES = CN1CCN(Cc2ccc(NC(=O)c3cccc(C#Cc4cnc(N)c5ncccc45)c3)cc2C(F)(F)F)CC1; assay = cell-free assay, competition with immobilised ligand; conditions = 50 nM; measurement = remaining binding; result = 100%
